Experimental data from different studies.
Parts stem from different laboratories: compare values within a part only. Positions count from the first letter of the parent shown.

Series 1
Target: OGT, full length, His-tagged (human)
Method: phage display, sequencing
Medium: in vitro
Tested at: 1 µg OGT
Notes: single substitutions, 15-mer displayed peptide, unchanged parent 5.27
Reference: input library
Reading: higher = stronger binding
Starting sequence: peptide; GDFPVMFMPKYSIIY
Substitution	fold enrichment
K10F	4.95 fold
V5N	7.64 fold
M6D	6.23 fold
G1I	9.59 fold
I13H	1.11 fold
Y11G	0.587 fold
S12D	1.57 fold
S12N	1.25 fold
Y15F	5.08 fold
M8E	0.213 fold
V5R	1.76 fold
Y15L	5.89 fold
D2W	3.72 fold
K10H	3.37 fold
K10I	1.43 fold

Series 2
Target: ABI1, truncated, D143A, DHFR fusion (Arabidopsis thaliana)
Method: DHFR PCA, deep sequencing
Medium: yeast
Notes: methotrexate growth selection, single substitutions
Added: (+)-ABA 58 µM
Reference: wild-type fitted maximum
Reading: higher = stronger binding
Starting sequence: PYL1, truncated, DHFR fusion (Arabidopsis thaliana); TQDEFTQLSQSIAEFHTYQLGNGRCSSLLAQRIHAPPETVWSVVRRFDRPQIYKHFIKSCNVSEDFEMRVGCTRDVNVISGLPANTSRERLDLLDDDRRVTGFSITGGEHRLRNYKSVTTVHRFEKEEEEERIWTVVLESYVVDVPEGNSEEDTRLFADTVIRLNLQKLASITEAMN; partner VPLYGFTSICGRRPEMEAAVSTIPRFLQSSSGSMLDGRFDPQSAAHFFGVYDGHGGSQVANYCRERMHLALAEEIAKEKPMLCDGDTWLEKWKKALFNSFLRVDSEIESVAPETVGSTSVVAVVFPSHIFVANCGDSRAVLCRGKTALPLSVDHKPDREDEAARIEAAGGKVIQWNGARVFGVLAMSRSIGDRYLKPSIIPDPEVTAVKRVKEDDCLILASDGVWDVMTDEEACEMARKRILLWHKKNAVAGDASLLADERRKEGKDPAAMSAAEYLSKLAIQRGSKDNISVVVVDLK
Substitution	relative binding score [%]
V136N	25.4
G148Y	43.8
C72V	85.2
T6W	85.4
N85V	87.3
I52K	76.5
Q167N	74.2
Q2E	87.5
R111Y	30.8
T73R	69.8

Series 3
Target: CCNB2, cyclin fold, Cln2 fusion (human)
Method: yeast growth competition, sequencing
Medium: yeast
Notes: weak parent motif
Reference: not given
Reading: higher = stronger binding
Starting sequence: MASTL docking peptide (human); PMIAKNLMCELDE
Substitution	normalised enrichment score
PMIAKNLMHELDE [C9H]	0.359
PDIAKNLMCELDE [M2D]	1.31
PMIAKNLMQELDE [C9Q]	1.14
PMIWKNLMCELDE [A4W]	0.00927
PMRAKNLMCELDE [I3R]	0.077
PMICKNLMCELDE [A4C]	0.705
PMIFKNLMCELDE [A4F]	-0.324
PMVAKNLMCELDE [I3V]	0.301
PMITKNLMCELDE [A4T]	0.492
PMEAKNLMCELDE [I3E]	-0.0698
PMIAKNLMCGLDE [E10G]	-0.237
PMIAVNLMCELDE [K5V]	-0.304
PMIAKNLMCEGDE [L11G]	0.066
PMIAKNLMCELVE [D12V]	0.577
PMIAKNLMCELKE [D12K]	0.294
PMIAKNLMCYLDE [E10Y]	0.524
PMIAKNLMCECDE [L11C]	-0.169
PMIEKNLMCELDE [A4E]	0.146
PMIAKNWMCELDE [L7W]	-0.208
PMIAKWLMCELDE [N6W]	-0.149
PMIAHNLMCELDE [K5H]	-0.0503
PMIAKKLMCELDE [N6K]	0.343
PMKAKNLMCELDE [I3K]	0.2
PMIAKNSMCELDE [L7S]	-0.212
PMIAKYLMCELDE [N6Y]	0.12

Series 4
Target: Fragile X messenger ribonucleoprotein 1, C-terminal low-complexity region (Fmr1, Mus musculus, UniProt P35922)
Method: RNA Bind-n-Seq
Form: RNA
Medium: in vitro
Tested at: 200 nM
Notes: whole 134-nt RNA, ends assumed
Added: 150 mM LiCl
Reference: input library
Reading: higher = stronger binding
Each molecule: 7-deaza-guanosine replaces G
Constant ends, left off below: GGGAGUUCUACAGUCCGACGAUC … UGGAAUUCUCGGGUGUCAAGG
Strand	log2 enrichment
UGGCCCUGGUGGCAUGCGGGGAGGAAGAGGUGGCCUCAUGGAUCGUGGUGGUCCCGGUGGAAUGUUCAGAGCUGGCCGUGGUGGAGACAG	-1.5
ACCAUGCAGGUGGGCAUCUUUGGGAAGUGGGGCAAGGGGGGGAUAGGGAGGGGGGUAACACUUUGGGAACAGGUGGUCCCAGGUCGUUUC	1.01
UUGCGCCUGUCCCGGGUGAAGUGUGUCGGCCUCUCCGCACGCACCACGGAGACCAGCAGUGCAGUCAUGUGCCUGGACCUUGCAGCUUCC	0.338
UGGCUAGUCAGCAGCGGAUGUCCCCUCCAGGUUAAGAAAGCCGAACCAGAGCCGAUGCGAGAGGAGGAGAAAAUGAUUCCUCCUACGAAA	1.61
AAGUCCUGUGCUACACAUCGUAUGUACCGAAUCGGAAAAAAAGGAAAGGAAAAAGGAAAGUAUUAUGUUACGCCGUUCGGAUCUGCACUU	-1.41
AAGUCCUGUGCUACACAUCGUAUGUACCGAAUCAAAUUUAAAUUUAAAUUUUUAAAAAAGUAUUAUGUUACGCCGUUCGGAUCUGCACUU	-3.29
AAAAAAAGUGUGUAUUAGGAGGAGAGAGAGGAAAAAAAGAGGAAAGAAGGAAAAAAAAAAGAAUUAAAAAAAAAAAAAAGAAAAACAGAA	0.875
AGUCCUGUGCUACACAUCGUAUGUACCGAAUCGGGGCCCCGGGGCCCCGGGCCCCGGGAAAGUAUUAUGUUACGCCGUUCGGAUCUGCAC	-1.63

Mixed results
Substance	target	assay	system	conditions	how to read	quantity	value
PhoQ, residues 284 288 289 292 302 303 NLMGRA	PhoP, residues 12 14 15 18 19 AGCRL (Escherichia coli, UniProt P23836)	Sort-seq, item: YFP reporter	E. coli	PhoQ-PhoP variant library, added: 10 µM Mg2+	reference: high Mg2+ state, higher = stronger signaling	fold induction	15.3

For quick reference, copied from above (series 3):
Substitution	normalised enrichment score
PMEAKNLMCELDE [I3E]	-0.0698
PMIAKNLMCGLDE [E10G]	-0.237
PMIAVNLMCELDE [K5V]	-0.304
PMIAKNLMCEGDE [L11G]	0.066
PMIAKNLMCELVE [D12V]	0.577
PMIAKNLMCELKE [D12K]	0.294
PMIAKNLMCYLDE [E10Y]	0.524
PMIAKNLMCECDE [L11C]	-0.169
PMIEKNLMCELDE [A4E]	0.146
